Assay results collected from several papers.
Values joined by “and” are separate records of one study, mostly repeats; a detail may differ. ± gives the spread as reported.
Gria1: Glutamate receptor 1 (Gria1, Rattus norvegicus, UniProt P19490)
CASP6: Caspase-6 (CASP6, Homo sapiens, UniProt P55212)
TDP1: Tyrosyl-DNA phosphodiesterase 1 (TDP1, Homo sapiens, UniProt Q9NUW8)
ppa: Inorganic pyrophosphatase (ppa, Escherichia coli, UniProt P0A7A9)
T1: RNA, abasic bulge mismatch; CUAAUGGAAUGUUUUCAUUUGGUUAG

| SMILES | target | assay | test system | setting | how to read | quantity | value |
| --- | --- | --- | --- | --- | --- | --- | --- |
| O=C(O)Cc1cc2c(cc1C(=O)c1ccc(Cl)cc1Cl)OCO2 | Gria1 | whole-cell patch clamp | HEK-293T | concentration not given, with: glutamate |  | desensitization time constant | 0.7 ± 0.1 ms |
| CC(=O)N[C@@H](CC(C)C)C(=O)N[C@@H](Cc1ccccc1)C(=O)N[C@@H](CO)C(=O)N[C@@H](CC(=O)O)C(=O)COC(=O)c1c(C)cccc1C | CASP6 | enzyme activity, inhibitor |  |  |  | kinact/KI | 3000 M⁻¹ s⁻¹ |
| N=C(N)NCCS(=O)(=O)O | SLC6A6 (Homo sapiens, UniProt P31641, Y138A) | binding, microscale thermophoresis |  | 30.5 nM, room temperature, with: 50 nM labelled protein | higher = more binding | normalised MST signal | 0.0191 |
| O=C(O)c1ccc(Nc2c(-c3ccccc3)nc3ccc(CON=Cc4ccc(OC5CCCCC5)nc4)cn23)cc1 (mixture of isomers) | TDP1 | enzyme activity, inhibitor |  | 100 µM, unpurified compound |  | inhibition | 35.4% |
| CCCCCCCCCCCCC/C=C/C=O | NIT1 (Homo sapiens, UniProt Q86X76) | competitive isoTOP-ABPP | proteome, soluble, MDA-MB-231 | 100 µM, 60 min, with: iodoacetamide probe | reference: DMSO over compound-treated, higher = stronger cysteine blockade | isoTOP-ABPP competition ratio | 1.3 |
| CCn1cc(-c2cccc(C(F)(F)F)c2)c2sc(C(=N)NC3CCS(=O)(=O)CC3)cc2c1=O | Bromodomain-containing protein 4, BD2 (BRD4, Homo sapiens, UniProt O60885) |  |  |  |  | ΔTm | 2.9 °C |
| O=C(O)c1ccc(Nc2c(-c3ccc(CON=Cc4ccc(-n5cncn5)cc4)cc3)nc3cc(-c4ccccc4)ccn23)cc1 (mixture of isomers) | TDP1 | enzyme activity, inhibitor |  | 100 µM, unpurified compound |  | inhibition | 75.3% |
| COC(=O)Cc1cc2c(cc1C(=O)c1cccc(I)c1)OCO2 | Gria1 | glutamate-evoked current, whole-cell patch clamp | HEK-293T | concentration not given, weighted tau, 1 ms pulse, with: glutamate |  | deactivation time constant | 2.5 ± 0.1 ms |
| O=C1c2sc(-c3ccc(N4CCC(CO)CC4)nc3F)nc2CCN1c1cccnc1 | Nociceptin receptor (OPRL1, Homo sapiens, UniProt P41146) | ligand displacement, radioligand |  | 1 µM |  | inhibition | 7% |
| CCCCCC(O)/C=C/C=O (stereo not drawn) | Treacle protein (Homo sapiens, UniProt Q13428) | competitive isoTOP-ABPP, refers to: TCOF1 cysteine peptide | Ramos soluble proteome | 100 µM, with: iodoacetamide probe | reference: DMSO over compound-treated, higher = stronger cysteine blockade | isoTOP-ABPP competition ratio | 1.7 |
| COC(=O)Cc1cc2c(cc1C(=O)c1ccccc1)OCO2 | Gria1 | glutamate-evoked current, whole-cell patch clamp | HEK-293T | concentration not given, glutamate alone after washout, with: glutamate |  | current amplitude after recovery | 867 ± 38 pA |
| Clc1ccc(C2=Nn3c(nnc3C3CCCCC3)SC2)cc1 | ppa | enzyme activity, inhibitor |  |  |  | IC50 | > 100 µM |
| C#CCOC(=O)[C@]1(C)C=C(C(=O)OC(C)(C)C)C(=O)CC1 | MAPK1 (Homo sapiens, UniProt P28482) | enzyme activity, D-SENSOR |  | 0.06097 µM, single replicate |  | normalized kinase activity | 0.849 and 0.866 and 1.03 |
| O=C(O)c1ccc(Nc2c(-c3ccc(CON=Cc4ccc(O)c5ncccc45)cc3)nc3cc(-c4ccccc4)ccn23)cc1 | TDP1 | enzyme activity, inhibitor |  | 100 µM, unpurified compound |  | inhibition | 80.4% |
| CCCCCCCCCCCCCCCC(=O)OCC(CSC[C@H](N)C(=O)N[C@@H](CO)C(=O)N[C@@H](CCCCN)C(=O)N[C@@H](CCCCN)C(=O)N[C@@H](CCCCN)C(=O)N[C@@H](CCCCN)C(=O)NCCCCCC(=O)N[C@@H](CCCCN)C(=O)N[C@@H](CC(C)C)C(=O)N[C@H](C(=O)N[C@@H](Cc1ccccc1)C(=O)N[C@@H](Cc1ccccc1)C(=O)N[C@@H](Cc1ccc2ccccc2c1)C(=O)O)C(C)C)OC(=O)CCCCCCCCCCCCCCC (stereo partly drawn) | Amyloid-beta precursor protein, fibrillar amyloid-beta (APP, Homo sapiens, UniProt P05067) | TEM |  | 2.0 eq, 28 h, fibril 6, with: APP 20 µM |  | fibril diameter | 10 nm |
| Cc1nn(C(=O)OC(C)(C)C)c(C)c1C=NOCc1ccc(-c2nc3cc(-c4ccccc4)ccn3c2Nc2ccc(C(=O)O)cc2)cc1 | TDP1 | enzyme activity, inhibitor |  | 100 µM, unpurified compound |  | inhibition | 10.4% |
| CC(=O)N[C@H](C(=O)N[C@@H](CCCNC(N)=O)C(=O)N[C@@H](CCO)C(=O)N[C@@H](CC(=O)O)C(=O)COC(=O)c1c(C)cccc1C)C1CCCCC1 | CASP6 | enzyme activity, inhibitor |  |  |  | kinact/KI | 500 M⁻¹ s⁻¹ |

| SMILES | target | assay | test system | setting | how to read | quantity | value |
| --- | --- | --- | --- | --- | --- | --- | --- |
| COc1ccc(OC)c(C2=Nn3c(nnc3C3CCCCC3)SC2)c1 | ppa | inhibitor, counter-screen, coupling enzyme alone |  |  |  | IC50 | > 30 µM |
| CC(C=CC=C(C)C=CC1=C(C)CCCC1(C)C)=CC=O | Rhodopsin (RHO, Homo sapiens, UniProt P08100, P23H) | immunostaining, refers to: opsin | COS-7 transfected | 0.05 µM, unit not given | reference: surface over total stained cells | plasma membrane localization | 0 |
| CCCCCC=CC=C1C(=O)C=CC1CC=CCCCC(=O)O (stereo not drawn) | AH receptor-interacting protein (Homo sapiens, UniProt O00170) | competitive isoTOP-ABPP | Ramos soluble proteome | 100 µM, with: iodoacetamide probe | reference: DMSO over compound-treated, higher = stronger cysteine blockade | isoTOP-ABPP competition ratio | 2.4 |
| N#CC(C=NOCc1ccc2nc(-c3ccccc3)c(Nc3ccc(C(=O)O)cc3)n2c1)c1nc2ccccc2o1 (stereo not drawn) | TDP1 | enzyme activity, inhibitor |  | 100 µM, unpurified compound |  | inhibition | -13.1% |
| Cc1ccc2ccc(NC(=O)OCCCN(CCCOC(=O)Nc3ccc4ccc(C)nc4n3)Cc3ccc(/N=N/c4ccc(CN(CCCOC(=O)Nc5ccc6ccc(C)nc6n5)CCCOC(=O)Nc5ccc6ccc(C)nc6n5)cc4)cc3)nc2n1 | T1, RNA, abasic bulge mismatch | CSI-TOF-MS |  | before irradiation |  | binding | no binding |
| CN(C(=O)[C@@H]1CSCC(=O)N[C@@H](Cc2ccccc2)C(=O)N[C@@H](CO)C(=O)N[C@@H](Cc2ccccc2)C(=O)N[C@@H](Cc2ccc(O)cc2)C(=O)N[C@@H](Cc2ccc(O)cc2)C(=O)N[C@@H](Cc2c[nH]cn2)C(=O)N[C@@H](Cc2c[nH]c3ccccc23)C(=O)N1)[C@@H](Cc1ccccc1)C(N)=O | Bromodomain-containing protein 4, BD1 (BRD4, Homo sapiens, UniProt O60885) | thermal stability, DSF |  | 100 µM |  | ΔTm | -0.51 °C |
| O=C1c2sc(-c3ccc(N4CCC(F)C4)nc3F)nc2CCN1c1cccnc1 (stereo not drawn) | TAR DNA-binding protein 43, aggregated (TARDBP, Homo sapiens, UniProt Q13148) | radioligand binding | control brain sarkosyl-insoluble extract | 200 nM |  | specific binding | 0.237 nM |
| NC(=O)c1cccc(CN(C(=O)NC(CN2CCCCC2)c2ccccc2)C(CN2CCCCC2)c2ccccc2)c1 (stereo not drawn) | OPRK1 (Homo sapiens, UniProt P41145) | Gi signalling |  |  |  | bias factor | 1.34 |
| Fc1ccc(Nc2nc(NC3CCCCC3)c3cc(Br)ccc3n2)cc1F | ADRB2 (Homo sapiens, UniProt P07550, L155C) | β-arrestin2 recruitment, antagonist, BRET |  | mutant L155C | reference: isoprenaline maximal response | maximal inhibition | -0.8% |
| CC[C@H](NC(=O)[C@H](CC(C)C)NC(=O)[C@H](CC(=O)O)NC(C)=O)C(=O)N[C@@H](CC(=O)O)C(=O)COC(=O)c1c(C)cccc1C | CASP6 | enzyme activity, inhibitor |  |  |  | kinact/KI | 11500 M⁻¹ s⁻¹ |
| O=C(O)c1ccc(Nc2c(-c3ccccc3)nc3ccc(CON=Cc4ccc(OC(=O)c5ccc6c(c5)OCO6)cc4)cn23)cc1 | TDP1 | enzyme activity, inhibitor |  | 100 µM, unpurified compound |  | inhibition | 25.1% |
| Cc1ccc(S(=O)(=O)N2C(=O)CC2C(=O)O)cc1 (stereo not drawn) | glpG (Escherichia coli, UniProt P09391) | enzyme activity, inhibitor, gel-based chimeric protein substrate |  |  |  | IC50 | inactive |
| O=C1NC(=O)/C(=C/c2ccc(C=NOCc3ccc(-c4nc5cc(-c6ccccc6)ccn5c4Nc4ccc(C(=O)O)cc4)cc3)cc2)N1 | TDP1 | enzyme activity, inhibitor |  | 100 µM |  | inhibition | 95.6% |
| COC(=O)Cc1cc2c(cc1C(=O)c1ccccc1Br)OCO2 | Gria1 | glutamate-evoked current, whole-cell patch clamp | HEK-293T | concentration not given, glutamate alone after washout, with: glutamate |  | current amplitude after recovery | 886 ± 42 pA |
| C=CCn1c(C)c(C=NOCc2ccc(-c3nc4cc(-c5ccccc5)ccn4c3Nc3ccc(C(=O)O)cc3)cc2)c2ccccc21 (mixture of isomers) | TDP1 | enzyme activity, inhibitor |  | 100 µM, unpurified compound |  | inhibition | 17.9% |
| CC1(C)C[C@@H](Nc2cccc(-c3sc(C(=O)O)c(OCC(=O)O)c3Cl)c2)CCN1S(=O)(=O)Cc1cccc(NC(=O)CN2CCC(c3ccc4c(c3)oc(=O)n4C3CCC(=O)NC3=O)CC2)c1 (stereo partly drawn) | PTPN2 (Homo sapiens, UniProt P17706, E41K/R35E/R43E) | degrader, bio-layer interferometry |  | 62.5 nM | higher = more binding | BLI binding response | 0.363 a.u. |

For quick reference, copied from above:
| SMILES | target | assay | test system | setting | how to read | quantity | value |
| --- | --- | --- | --- | --- | --- | --- | --- |
| CC(=O)N[C@@H](CC(C)C)C(=O)N[C@@H](Cc1ccccc1)C(=O)N[C@@H](CO)C(=O)N[C@@H](CC(=O)O)C(=O)COC(=O)c1c(C)cccc1C | CASP6 | enzyme activity, inhibitor |  |  |  | kinact/KI | 3000 M⁻¹ s⁻¹ |
| N=C(N)NCCS(=O)(=O)O | SLC6A6 (Homo sapiens, UniProt P31641, Y138A) | binding, microscale thermophoresis |  | 30.5 nM, room temperature, with: 50 nM labelled protein | higher = more binding | normalised MST signal | 0.0191 |
| O=C(O)c1ccc(Nc2c(-c3ccccc3)nc3ccc(CON=Cc4ccc(OC5CCCCC5)nc4)cn23)cc1 (mixture of isomers) | TDP1 | enzyme activity, inhibitor |  | 100 µM, unpurified compound |  | inhibition | 35.4% |
